# Measured values of several laboratories.
# A part holds a random share of what one study measured. Several values in a cell are separate wells, animals, samples, runs or records.

# Study 1 — method: in-cell ELISA
# Structure (SMILES): CCN1CCN(Cc2ccc(COc3c(-c4c(C)c(F)cc5[nH]ncc45)c(C4CC4)cc4c(N5C[C@@H]6C[C@H]5CN6)nc(OC5CCOCC5)nc34)cc2)C(=O)C1
cell line,conditions,phospho-ERK1/2 level
AsPC-1 (KRAS G12D),"300 pM, 24 h",101% and 109% and 106% and 104%
AsPC-1 (KRAS G12D),"3 µM, 24 h",15.4% and 19.1% and 16.6% and 18.3%
AsPC-1 (KRAS G12D),"300 nM, 24 h",82.2% and 85.8% and 80.1% and 85.5%
AsPC-1,"100 nM, 2 h",14.6% and 19% and 14.3% and 20.2%
AsPC-1 (KRAS G12D),"10 µM, 24 h",18.1% and 23.8% and 18.7% and 21.9%
AsPC-1,"300 nM, 2 h",3.4% and 6.3% and 5% and 7.7%
AsPC-1,"10 µM, 2 h",11.7% and 6.7% and 7.6% and 9.5%
AsPC-1 (KRAS G12D),"1 nM, 24 h",98.4% and 97.4% and 104% and 106%

# Study 2
# Compound: Cc1ccc(O)c(C)c1-c1cnc2[nH]c(-c3cnc(N4CCC5(CC4)CC(N4CCN(c6ccc(NC7CCC(=O)NC7=O)cc6F)CC4)CO5)nc3)cc2c1C#N (centres unmarked)
# PKMYT1: Membrane-associated tyrosine- and threonine-specific cdc2-inhibitory kinase (PKMYT1, Homo sapiens, UniProt Q99640)
# UniProt Q99640, sequence (whole entry, looked up): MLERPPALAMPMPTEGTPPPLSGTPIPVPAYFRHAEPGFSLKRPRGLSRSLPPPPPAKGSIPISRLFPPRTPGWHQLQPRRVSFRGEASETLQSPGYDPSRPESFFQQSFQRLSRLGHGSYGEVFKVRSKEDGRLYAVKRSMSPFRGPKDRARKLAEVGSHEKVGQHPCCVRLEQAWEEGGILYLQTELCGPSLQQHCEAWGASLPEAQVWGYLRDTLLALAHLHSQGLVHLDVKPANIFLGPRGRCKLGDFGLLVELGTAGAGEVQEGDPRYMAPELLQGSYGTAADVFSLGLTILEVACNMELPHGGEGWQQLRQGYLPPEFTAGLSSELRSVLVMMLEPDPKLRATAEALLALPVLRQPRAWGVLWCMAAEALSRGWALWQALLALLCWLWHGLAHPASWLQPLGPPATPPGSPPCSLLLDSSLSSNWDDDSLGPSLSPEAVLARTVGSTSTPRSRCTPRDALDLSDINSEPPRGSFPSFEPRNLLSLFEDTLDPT
tested on,assay,conditions,inhibition [%]
PKMYT1,,0.01235 µM,82.2
MDA-MB-157,item: CDK1 phospho-Thr14,0.15 nM,-31.8
MDA-MB-157,item: CDK1 phospho-Thr14,1.37 nM,-24.3
PKMYT1,"cell-free assay, inhibitor, TR-FRET",152 pM,6.76
HCC1599,item: CDK1 phospho-Thr14,37.04 nM,17
MDA-MB-157,item: CDK1 phospho-Thr14,37.04 nM,15.2
PKMYT1,,5.1e-05 µM,-1.93
HCC1599,item: CDK1 phospho-Thr14,0.15 nM,-9.4
HCC1599,item: CDK1 phospho-Thr14,0.0169 nM,-5.1

# Study 3
# SMILES: COCC1CC2C(CCC3C(O)CCC32)c2ccc(O)cc21 (centres unmarked)
cell line,assay,conditions,how to read,log2 fold change
SK-OV-3,"microarray, item: OLIG2",25 µM,baseline: untreated,0
PANC-1,"microarray, item: GZMK",25 µM,baseline: untreated,0
PANC-1,"microarray, item: OLIG2",25 µM,baseline: untreated,0
A549,"DNA microarray, item: CCL8",100 µM,baseline: untreated cells,0
A549,"microarray, item: OLIG2",25 µM,baseline: untreated,0
SK-OV-3,"DNA microarray, item: ADAMTS14",25 µM,baseline: untreated,1.9
SK-OV-3,"DNA microarray, item: UBB",25 µM,baseline: untreated,-0.241
SK-OV-3,"DNA microarray, item: UBB",100 µM,baseline: untreated,-0.111
PANC-1,"microarray, item: PIF1",25 µM,baseline: untreated,0.56
SK-OV-3,"DNA microarray, item: TMEM108",100 µM,baseline: untreated cells,0.0863
PANC-1,"DNA microarray, item: ACTB mRNA",100 µM,baseline: control,-0.701

# Study 4 — cell line: U-87 MG; concentration: concentration not given; baseline: DMSO
# SMILES: CCN1/C(=C/C=C2\CCCC(/C=C/C3=[N+](CC)c4ccccc4C3(C)C)=C2NCCCCCCCCN2CCC(Nc3nc4ccccc4n3Cc3ccc(F)cc3)CC2)C(C)(C)c2ccccc21
assay,log2 fold change
item: WHRN mRNA,1.39
item: ITPKC mRNA,0.985
item: LRCH2 mRNA,2.33
item: SSC4D mRNA,-1.79
item: APCDD1L mRNA,-1.58
item: TMOD1 mRNA,1.79
item: KLHL28 mRNA,1.11
item: BCL2L2 mRNA,0.822
item: SLC25A1 mRNA,-0.803
item: TAF4B mRNA,1
item: TMCC3 mRNA,2.42
item: AKR1C1 mRNA,1.02
item: PRMT6 mRNA,-1.2
item: CCNE2 mRNA,-1.68
item: RARB mRNA,-2.03
item: GEMIN4 mRNA,-0.846
